Experimental data gathered from unrelated publications.
Lines come from different studies, so protocols differ. ± marks the error that the study gave.

For `CC(C)C[C@H](NC(=O)[C@H](CCCCN)NC(=O)[C@H](CCC(=O)O)NC(=O)[C@H](C)NC(=O)[C@@H](NC(=O)[C@H](CCCCN)NC(=O)[C@H](CC(=O)O)NC(=O)[C@H](Cc1ccc(O)cc1)NC(=O)[C@H](Cc1ccccc1)NC(=O)[C@H](C)NC(=O)[C@H](CCCCN)NC(=O)[C@H](CC(C)C)NC(=O)[C@H](Cc1c[nH]c2ccccc12)NC(=O)[C@@H](N)CC(=O)O)C(C)C)C(=O)N[C@@H](CCCCN)C(=O)N[C@@H](CCC(=O)O)C(=O)N[C@@H](C)C(=O)N[C@@H](Cc1ccccc1)C(=O)N1CCC[C@H]1C(=O)N[C@@H](CC(=O)O)C(=O)N[C@@H](Cc1c[nH]c2ccccc12)C(=O)N[C@@H](C)C(=O)N[C@@H](CCCCN)C(=O)N[C@@H](C)C(=O)N[C@@H](C)C(=O)N[C@@H](Cc1ccc(O)cc1)C(=O)N[C@@H](CC(=O)O)C(=O)N[C@@H](CCCCN)C(=O)N[C@@H](C)C(=O)N[C@@H](C)C(=O)N[C@@H](CCC(=O)O)C(=O)N[C@@H](CCCCN)C(=O)N[C@@H](C)C(=O)N[C@@H](CCCCN)C(=O)N[C@@H](CCC(=O)O)C(=O)N[C@@H](C)C(=O)N[C@@H](C)C(=O)O`, the AUC(0-last) was 430 µg·h/mL (cynomolgus monkey female, plasma; intravenous infusion, 8 mg/kg, day 1, 30 min infusion).
For `CN[C@](C)(C[18F])C(=O)O`, the tissue uptake was 1.4 ± 0.7 %ID/g (SCID mouse A549 xenograft, bone; 60 min post injection).
`CSCC[C@@H]1NC(=O)[C@@H]2CSSC[C@H](NC(=O)[C@H](CO)NC(=O)[C@H](C)N)C(=O)N[C@@H](CCCNC(=N)N)C(=O)N[C@@H]([C@@H](C)O)C(=O)N3CCC[C@H]3C(=O)N[C@@H](CCCCN)C(=O)N[C@@H](CC(=O)O)C(=O)N[C@H]3CSSC[C@H](NC(=O)[C@H](CCCCN)NC(=O)[C@H](CCCNC(=N)N)NC(=O)[C@H](CC(N)=O)NC1=O)C(=O)N[C@@H](CCCCN)C(=O)N[C@H]1CSSC[C@H](NC(=O)[C@@H]4CCCN4C(=O)[C@H](CC(=O)O)NC(=O)[C@H](C)NC3=O)C(=O)N[C@@H](C)C(=O)N[C@@H](CCCCN)C(=O)N[C@@H](CCC(=O)O)C(=O)N[C@@H]([C@@H](C)O)C(=O)NCC(=O)N[C@@H](CSSC[C@@H](C(N)=O)NC(=O)[C@H](CCCNC(=N)N)NC(=O)[C@H](CC(N)=O)NC1=O)C(=O)N1CCC[C@H]1C(=O)N[C@@H](Cc1ccc(O)cc1)C(=O)NCC(=O)N[C@@H](CCCCN)C(=O)N2` gave a Glucose of 124 mg/dL (DA rat pristane-induced arthritis, serum; subcutaneous, 0.1 mg/kg single dose at onset, 21 days).
`Cc1ccc(OCC(=O)N(Cc2cccs2)c2ccn[nH]2)cc1` — result for “total corpora lutea count”: 419 (Crl:CD(SD) rat, bred female; oral, 1000 mg/kg/day, total per group, developmental toxicity).
`CC(CCC(=O)NCC(=O)O)C1CCC2C3CCC4CC(OC5OC(C(=O)O)C(O)C(O)C5O)CCC4(C)C3CC(O)C12C` (stereo not shown): “glucuronide to parent ratio” 2.61 (human, C/C genotype, plasma; dose not given, geometric mean, sex-adjusted).
The adverse events of `[2H]C([2H])([2H])C([2H])([2H])C([2H])([2H])OC(C(=O)OC1CCNCC1)(c1ccccc1)c1ccccc1` is reported as 0% (measured: rhinorrhea; healthy Japanese male; oral, 15 mg, 16 days, multiple ascending dose).
For `[11CH3]n1c(=O)n(CCCO)c(=O)c2c1nc(Oc1cccc(OC(F)(F)F)c1)n2Cc1ccc(Cl)cc1`, the tracer uptake was 1.49 ± 0.04 %ID/g (ex vivo biodistribution; Sprague Dawley rat, pancreas; 30 min post injection).
`C/C=C/C=C/C/C=C/CCCCCCCc1cccc(O)c1O` has a tissue concentration of 8130 ± 1020 ng/g (female Kunming mice, tumour-bearing, heart; intravenous, 10 mg/kg, 2 h).
The SUVmax of `CC(C)C[C@@H](NC(=O)[C@@H](CCCNC(=N)N)NC(=O)[C@@H](Cc1c[nH]cn1)NC(=O)[C@@H](Cc1c[nH]c2ccccc12)NC(=O)[C@@H](Cc1c[nH]cn1)NC(=O)[C@@H](Cc1ccccc1)NC(=O)[C@H](NC(=O)[C@@H](Cc1ccc(O)cc1)NC(=O)CNC(=O)CNC(=O)CCOCCOCCOCCNC(=O)CN1CCN(CC(=O)O)CCN(CC(=O)O)CC1)[C@H](C)O)C(=O)N[C@H](CC(N)=O)C(=O)N1CCC[C@@H]1C(=O)O` [gallium-68 labelled] is reported as 4.82 SUV (PET; human, right lung primary tumour).
For `CC[C@H](C)[C@H](NC(=O)[C@@H](Cc1ccccc1)NC)C(=O)N[C@@H](CO)C(=O)N[C@H](CCCNC(=N)N)C(=O)N[C@@H](C(=O)N[C@H](C(=O)N[C@@H](CO)C(=O)N[C@H]1C(=O)N[C@@H](C)C(=O)N[C@@H](C2CCCCC2)C(=O)N[C@@H]([C@@H](C)CC)C(=O)O[C@H]1C)[C@@H](C)CC)[C@@H](C)CC`, “acetonitrile share for dissolution” read ~40% (acetonitrile-water; TFA salt).
`N=C(N)NCCC[C@@H]1NC(=O)[C@H](CCCCNC(=O)CCOCCOCCOCCOCCNC(=O)CN2CCN(CC(=O)O)CCN(CC(=O)O)CCN(CC(=O)O)CC2)NC(=O)[C@@H](Cc2ccccc2)NC(=O)[C@H](CC(=O)O)NC(=O)CNC1=O` [indium-111 labelled] has a tissue uptake of 1.01 ± 0.05 %ID/g (female athymic nude mice, lungs; intravenous, 3 µCi, 1 h, U-87 MG glioma xenograft).
For `N=C(N)NCc1ccc(C(=O)NCCCC[C@H](NC(=O)N[C@@H](CCC(=O)O)C(=O)O)C(=O)O)cc1[131I]`, the tissue uptake was 0.46 ± 0.23 %ID/g (SCID mouse, PC-3 xenografts, stomach; 4 h).
For `CC(=O)[CH](C(C)=O)[Pt-2]1([S+](C)C)[O]C(C)=CC(C)=[O+]1` (stereo not shown), the urine volume was 0.85 ± 0.1 mL/24 h (nude BALB/c mice; iv, dose not given).
`CCCC[C@H](NC(=O)CNC(=O)CNC(=O)c1ccc(NN)nc1)C(=O)N[C@H]1CC(=O)NCCCC[C@@H](C(N)=O)NC(=O)[C@H](Cc2c[nH]c3ccccc23)NC(=O)[C@H](CCCNC(=N)N)NC(=O)[C@@H](Cc2ccccc2)NC(=O)[C@H](Cc2c[nH]cn2)NC1=O` [technetium-99m labelled] — result for “activity cleared from body”: ~91 % injected dose (C57 mice bearing B16/F1 melanoma; dose not given, 2 h post-injection).
`CC[C@H](C)[C@H](NC(=O)[C@H](CCC(=O)O)NC(=O)[C@H](CCC(=O)O)NC(=O)[C@H](Cc1ccccc1)NC(=O)[C@H](CC(=O)O)NC(=O)CNC(=O)[C@H](CC(N)=O)NC(=O)CNC(=O)CNC(=O)CNC(=O)CNC(=O)[C@@H]1CCCN1C(=O)[C@H](CCCNC(=N)N)NC(=O)[C@@H]1CCCN1C(=O)[C@H](N)Cc1ccccc1)C(=O)N1CCC[C@H]1C(=O)N[C@@H](CCC(=O)O)C(=O)N[C@@H](CCC(=O)O)C(=O)N[C@@H](Cc1ccc(O)cc1)C(=O)N[C@@H](CC(C)C)C(=O)O` gave a concentration of 241 ± 11.7 ng/mL (LC-MS/MS; processed plasma samples; 7 h, autosampler stability, nominal 240.0 ng/mL).
For `CCCCC[C@@H]1NC(=O)[C@@H](C)N(C)C(=O)[C@H](CCCCC)OC(=O)[C@@H](C)N(C)C(=O)[C@H](CCCCC)OC(=O)[C@@H](C)N(C)C(=O)[C@H](CCCCC)OC(=O)[C@@H](C)N(C)C1=O`, the Papp A→B was 0.978 ×10⁻⁶ cm/s (Caco-2; 10 µM).
For `CC(C)[C@H]1NC(=O)C[C@H]2/C=C/CCSSC[C@@H](NC1=O)C(=O)N[C@H](Cc1cccc3ccccc13)C(=O)NCC(=O)O2`, the AUC was 0.015 µg·h/mL (nude mouse, blood; intraperitoneal, 4 mg/kg).
The excreted dose of `N=C(N)NCCC[C@@H]1NC(=O)[C@H](CCCCNC(=O)CCOCCOCCOCCOCCNC(=O)CC[C@H](NC(=O)CCOCCOCCOCCOCCNC(=O)CC[C@H](NC(=O)CN2CCN(CC(=O)O)CCN(CC(=O)O)CCN(CC(=O)O)CC2)C(=O)NCCOCCOCCOCCOCCC(=O)N[C@@H](CCC(=O)NCCOCCOCCOCCOCCC(=O)NCCCC[C@@H]2NC(=O)[C@@H](Cc3ccccc3)NC(=O)[C@H](CC(=O)O)NC(=O)CNC(=O)[C@H](CCCNC(=N)N)NC2=O)C(=O)NCCOCCOCCOCCOCCC(=O)NCCCC[C@@H]2NC(=O)[C@@H](Cc3ccccc3)NC(=O)[C@H](CC(=O)O)NC(=O)CNC(=O)[C@H](CCCNC(=N)N)NC2=O)C(=O)NCCOCCOCCOCCOCCC(=O)NCCCC[C@@H]2NC(=O)[C@@H](Cc3ccccc3)NC(=O)[C@H](CC(=O)O)NC(=O)CNC(=O)[C@H](CCCNC(=N)N)NC2=O)NC(=O)[C@@H](Cc2ccccc2)NC(=O)[C@H](CC(=O)O)NC(=O)CNC1=O` [indium-111 labelled] is reported as > 75% (athymic nude mouse, female, U-87 MG xenograft, urine; intravenous, dose not given).
For `CCCC[C@H](NC(=O)CCCCCCCNC(=O)c1ccc(NN)nc1)C(=O)N[C@H]1CC(=O)NCCCC[C@@H](C(N)=O)NC(=O)[C@H](Cc2c[nH]c3ccccc23)NC(=O)[C@H](CCCNC(=N)N)NC(=O)[C@@H](Cc2ccccc2)NC(=O)[C@H](Cc2c[nH]cn2)NC1=O` [technetium-99m labelled], the biodistribution was 91.29 ± 0.7 %ID (C57 mice, B16/F1 melanoma, urine; concentration not given, 2 h, together with: 6.07 nmol NDP-MSH).
`COc1nc(CC=C(C)CC=CC(C)=CC(C)C(OC2OC(CO)C(O)C(O)C2O)C(C)=CCO)c(C)c(O)c1OC` (stereo not shown): “elimination rate ratio” 7.38 (human liver microsomes; relative to: UGT over CYP metabolism).
`C[C@@H](NC(=O)[C@@H](CCC(N)=O)NC(=O)[C@@H](C)NC(=O)[C@@H](CCCCN)NC(=O)[C@@H](CCC(N)=O)NC(=O)[C@@H](C)NC(=O)[C@@H](CCCCN)NC(=O)[C@@H](CCC(N)=O)NC(=O)[C@@H](C)NC(=O)[C@@H](CCC(N)=O)NC(=O)[C@@H](CCCCN)NC(=O)[C@@H](C)NC(=O)[C@@H](CCC(N)=O)NC(=O)[C@@H](CCCCN)NC(=O)[C@@H](C)NC(=O)[C@@H](CCC(N)=O)NC(=O)[C@@H](C)NC(=O)[C@@H](CCCCN)NC(=O)[C@@H](CCC(N)=O)NC(=O)[C@@H](C)NC(=O)[C@@H](CCCCN)NC(=O)[C@@H](CO)NC(=O)[C@@H](Cc1ccc(O)cc1)NC(=O)CNC(=O)CNC(=O)CN)C(=O)N[C@H](CCCCN)C(=O)N[C@H](CCC(N)=O)C(=O)N[C@H](C)C(=O)N[C@H](CCCCN)C(=O)N[C@H](CCC(N)=O)C(=O)O` has a Kd of 5.4 nM (binding, SPR Langmuir fit; rVλ6Wil fibrils; pH 7.4).
`CC1=C(/C=C/C(=O)N2CCN(C(N)=O)CC2)C(C)(C)CCC1` — result for tolerability: “not toxic” (rat).

A few entries again:
`CC(CCC(=O)NCC(=O)O)C1CCC2C3CCC4CC(OC5OC(C(=O)O)C(O)C(O)C5O)CCC4(C)C3CC(O)C12C` (stereo not shown): “glucuronide to parent ratio” 2.61 (human, C/C genotype, plasma; dose not given, geometric mean, sex-adjusted).
The excreted dose of `N=C(N)NCCC[C@@H]1NC(=O)[C@H](CCCCNC(=O)CCOCCOCCOCCOCCNC(=O)CC[C@H](NC(=O)CCOCCOCCOCCOCCNC(=O)CC[C@H](NC(=O)CN2CCN(CC(=O)O)CCN(CC(=O)O)CCN(CC(=O)O)CC2)C(=O)NCCOCCOCCOCCOCCC(=O)N[C@@H](CCC(=O)NCCOCCOCCOCCOCCC(=O)NCCCC[C@@H]2NC(=O)[C@@H](Cc3ccccc3)NC(=O)[C@H](CC(=O)O)NC(=O)CNC(=O)[C@H](CCCNC(=N)N)NC2=O)C(=O)NCCOCCOCCOCCOCCC(=O)NCCCC[C@@H]2NC(=O)[C@@H](Cc3ccccc3)NC(=O)[C@H](CC(=O)O)NC(=O)CNC(=O)[C@H](CCCNC(=N)N)NC2=O)C(=O)NCCOCCOCCOCCOCCC(=O)NCCCC[C@@H]2NC(=O)[C@@H](Cc3ccccc3)NC(=O)[C@H](CC(=O)O)NC(=O)CNC(=O)[C@H](CCCNC(=N)N)NC2=O)NC(=O)[C@@H](Cc2ccccc2)NC(=O)[C@H](CC(=O)O)NC(=O)CNC1=O` [indium-111 labelled] is reported as > 75% (athymic nude mouse, female, U-87 MG xenograft, urine; intravenous, dose not given).
`Cc1ccc(OCC(=O)N(Cc2cccs2)c2ccn[nH]2)cc1` — result for “total corpora lutea count”: 419 (Crl:CD(SD) rat, bred female; oral, 1000 mg/kg/day, total per group, developmental toxicity).
